Measurements pooled from the literature.
Each line is one published result; not all experiments were run side by side. ± gives the spread as reported.

For `CCc1ccccc1NC(=S)N/N=C/c1ccc(O)cc1O`, the viability was 80% (L929; MTT; 25 µM, 24 h).
For `C[C@@H](O)[C@H](N)C(=O)N[C@H](C(=O)N[C@@H](CC(N)=O)C(=O)N[C@@H](Cc1ccc(O)cc1)C(=O)N[C@H](C(N)=O)[C@@H](C)O)[C@@H](C)O`, the half-life was 3.5 h (RP-HPLC; 25% human serum in RPMI; 37 °C).
With `CC[C@H](C)[C@H](NC(=O)[C@H](CCCN)NC(=O)[C@H](CC(=O)O)NC(=O)[C@H](CC(C)C)NC(=O)C(C)(CC(C)C)NC(=O)[C@@H](NC(=O)[C@H](CO)NC(=O)[C@H](Cc1ccc(O)cc1)NC(=O)[C@H](CC(=O)O)NC(=O)[C@H](CO)NC(=O)[C@@H](NC(=O)[C@H](Cc1ccccc1)NC(=O)[C@@H](NC(=O)CNC(=O)[C@H](CCC(=O)O)NC(=O)C(C)(C)NC(=O)[C@@H](N)Cc1ccc(O)cc1)[C@@H](C)O)[C@@H](C)CC)[C@@H](C)CC)C(=O)N[C@@H](Cc1c[nH]cn1)C(=O)N[C@@H](CCC(N)=O)C(=O)NC(C)(C)C(=O)N[C@@H](CC(=O)O)C(=O)N[C@@H](Cc1ccccc1)C(=O)N[C@H](C(=O)N[C@@H](CCC(=O)O)C(=O)N[C@@H](Cc1ccc(O)cc1)C(=O)N[C@@H](CCCCNC(=O)COCCOCCNC(=O)COCCOCCNC(=O)CC[C@H](NC(=O)CCCCCCCCCCCCCCCCCCC(=O)O)C(=O)O)C(=O)N[C@@H](CC(C)C)C(=O)N[C@@H](CCC(=O)O)C(=O)NCC(=O)NCC(=O)N1CCC[C@H]1C(=O)N[C@@H](CO)C(=O)N[C@@H](CO)C(=O)NCC(=O)N[C@@H](C)C(=O)N1CCC[C@H]1C(=O)N1CCC[C@H]1C(=O)N1CCC[C@H]1C(=O)N[C@@H](CO)C(N)=O)C(C)C` (some centres unmarked) the CL/F was 0.325 mL/min (human, plasma; subcutaneous, 25 mg, single dose, healthy volunteers).
`CC[C@H](C)[C@H](NC(=O)[C@H](CCCCN)NC(=O)[C@H](CCCCN)NC(=O)[C@H](CC(C)C)NC(=O)[C@H](Cc1c[nH]c2ccccc12)NC(=O)CN)C(=O)NCC(=O)N[C@@H](CCCCN)C(=O)N[C@@H](CCCCN)C(=O)N[C@H](C(=O)N[C@@H](CCC(=O)O)C(=O)N[C@@H](CCCNC(=N)N)C(=O)N[C@H](C(=O)NCC(=O)N[C@@H](CCC(N)=O)C(=O)N[C@@H](Cc1c[nH]cn1)C(=O)N[C@H](C(=O)N[C@@H](CCCNC(=N)N)C(=O)N[C@@H](CC(=O)O)C(=O)N[C@@H](C)C(=O)N[C@H](C(=O)N[C@H](C(=O)N[C@@H](CCC(N)=O)C(=O)N[C@H](C(=O)N[C@H](C(=O)NCC(=O)N[C@H](C(=O)N[C@@H](C)C(=O)N[C@@H](CCC(N)=O)C(=O)N[C@@H](CCC(N)=O)C(=O)N[C@@H](C)C(=O)N[C@@H](C)C(=O)N[C@@H](CC(N)=O)C(=O)N[C@H](C(=O)N[C@@H](C)C(=O)N[C@@H](C)C(=O)N[C@H](C(=O)N[C@@H](CC(C)C)C(=O)N[C@@H](CCCCN)C(N)=O)[C@@H](C)O)C(C)C)C(C)C)[C@@H](C)CC)[C@@H](C)O)[C@@H](C)CC)[C@@H](C)O)[C@@H](C)O)C(C)C)[C@@H](C)CC` gave a no-observed-effect concentration of 420 mg/L (HepG2; cytotoxicity, item: intracellular ATP).
`CC[C@H](C)[C@@H]1NC(=O)[C@H](CCCNC(=N)N)NC(=O)[C@H](CO)NC(=O)[C@H](CCC(=O)O)NC(=O)[C@H](CC(=O)O)NC(=O)CNC(=O)CNC(=O)[C@H]([C@@H](C)O)NC(=O)[C@H](Cc2ccccc2)NC(=O)[C@H](CO)NC(=O)[C@H]([C@@H](C)O)NC(=O)[C@H](C)NC(=O)[C@@H]2CSSC[C@@H](C(=O)N[C@@H](Cc3ccc(O)cc3)C(=O)N[C@@H](Cc3ccccc3)C(=O)N[C@H](C(=O)N[C@H](C(=O)NCC(=O)O)[C@@H](C)O)[C@@H](C)O)NC(=O)[C@H]([C@@H](C)O)NC(=O)[C@H](CSSC[C@H](NC(=O)[C@H](CCC(=O)O)NC(=O)[C@H](CO)NC(=O)[C@H](CCCCN)NC(=O)[C@H](Cc3ccc(O)cc3)NC(=O)[C@@H]3CCCN3C(=O)[C@H](Cc3ccccc3)NC(=O)[C@H](CCCCN)NC(=O)[C@H](CCCNC(=N)N)NC(=O)[C@H](CCCCN)NC(=O)[C@H](CCCCN)NC(=O)[C@H](Cc3ccc(O)cc3)NC(=O)[C@@H]3CCCN3C(=O)[C@@H](NC(=O)[C@H](CC(=O)O)NC(=O)[C@H](CCCCN)NC(=O)[C@H](CCCCN)NC(=O)[C@@H](NC(=O)[C@@H](NC(=O)[C@@H](N)CCC(=O)O)C(C)C)[C@@H](C)CC)[C@@H](C)O)C(=O)N[C@@H](CC(C)C)C(=O)N[C@@H](CCCCN)C(=O)N[C@@H](C)C(=O)N2)NC(=O)[C@H](CCCCN)NC(=O)[C@H](Cc2ccccc2)NC(=O)[C@H](Cc2ccccc2)NC(=O)CNC(=O)[C@@H]2CCCN2C(=O)[C@H](CCCCN)NC(=O)CNC(=O)[C@H](CCC(=O)O)NC(=O)[C@H](CCC(N)=O)NC1=O` gave an elimination half-life of 4.5 h (ELISA; mouse, plasma; intravenous).
The Cmax of `CCCCCCCCCCCCCCCC(=O)N[C@@H](CCC(=O)NCCCC[C@H](NC(=O)[C@H](CC(=O)O)NC(=O)[C@H](CO)NC(=O)[C@@H](NC(=O)[C@H](Cc1ccccc1)NC(=O)[C@@H](NC(=O)CNC(=O)[C@H](CCC(N)=O)NC(=O)[C@H](C)NC(=O)[C@@H](Cc1ccc(O)cc1)NC(C)=O)[C@@H](C)O)[C@@H](C)O)C(=O)N[C@@H](CO)C(=O)N[C@@H](CCCCN)C(=O)N[C@@H](Cc1ccc(O)cc1)C(=O)N[C@@H](CC(C)C)C(=O)N[C@@H](CC(=O)O)C(=O)N[C@@H](CCC(=O)O)C(=O)N[C@@H](CCCNC(=N)N)C(=O)N[C@@H](C)C(=O)N[C@@H](C)C(=O)N[C@@H](CCC(N)=O)C(=O)N[C@@H](CC(=O)O)C(=O)N[C@@H](Cc1ccccc1)C(=O)N[C@H](C(=O)N[C@@H](CCC(N)=O)C(=O)N[C@@H](Cc1c[nH]c2ccccc12)C(=O)N[C@@H](CC(C)C)C(=O)N[C@@H](CC(C)C)C(=O)N[C@@H](CCC(=O)O)C(=O)NCC(=O)NCC(=O)N1CCC[C@H]1C(=O)N[C@@H](CO)C(=O)N[C@@H](CO)C(=O)NCC(=O)N[C@@H](C)C(=O)N1CCC[C@H]1C(=O)N1CCC[C@H]1C(=O)N1CCC[C@H]1C(=O)N[C@@H](CO)C(N)=O)C(C)C)C(=O)O` is reported as 92.3 to 93.8 ng/mL (cynomolgus monkey, male, plasma; intravenous, 0.0031 mg/kg).
`CCCCCCCCCCCCCCCC(=O)N[C@@H](CCC(=O)NCCOCCOCCC(=O)NCCOCCOCCC(=O)NCCCC[C@H](NC(=O)[C@H](CC(=O)O)NC(=O)[C@H](CC(C)C)NC(=O)[C@H](Cc1ccc(O)cc1)NC(=O)[C@H](CCCCN)NC(=O)[C@H](CO)NC(=O)[C@H](Cc1ccc(O)cc1)NC(=O)[C@H](CC(=O)O)NC(=O)[C@H](CO)NC(=O)[C@@H](NC(=O)[C@H](Cc1ccccc1)NC(=O)[C@@H](NC(=O)CNC(=O)[C@H](CCC(N)=O)NC(=O)[C@@H](CO)NC(=O)[C@@H](N)Cc1c[nH]cn1)[C@@H](C)O)[C@@H](C)O)C(=O)N[C@@H](CCCNC(=N)N)C(=O)N[C@@H](CCCNC(=N)N)C(=O)N[C@@H](C)C(=O)N[C@@H](CCC(N)=O)C(=O)N[C@@H](CC(=O)O)C(=O)N[C@@H](Cc1ccccc1)C(=O)N[C@H](C(=O)N[C@@H](CCC(N)=O)C(=O)N[C@@H](Cc1c[nH]c2ccccc12)C(=O)N[C@@H](CC(C)C)C(=O)N[C@@H](CC(C)C)C(=O)N[C@@H](CC(N)=O)C(=O)N[C@H](C(=O)NCC(=O)NCC(=O)N1CCC[C@H]1C(=O)N[C@@H](CO)C(=O)N[C@@H](CO)C(=O)NCC(=O)N[C@@H](C)C(=O)N1CCC[C@H]1C(=O)N1CCC[C@H]1C(=O)N1CCC[C@H]1C(=O)N[C@@H](CO)C(N)=O)[C@@H](C)O)C(C)C)C(=O)O` gave a serum cholesterol of 1.41 ± 0.3 mmol/L (female Sprague-Dawley rats; subcutaneous, 20 µg/kg once daily, 14 days).
The AST of `CCCCCCCCCCCCCCCCCC(=O)N[C@@H](CCC(=O)NCCCC[C@H](NC(=O)[C@H](CCC(N)=O)NC(=O)[C@H](CCCCN)NC(=O)[C@H](CO)NC(=O)[C@H](CC(C)C)NC(=O)[C@H](CC(=O)O)NC(=O)[C@H](CO)NC(=O)[C@@H](NC(=O)[C@H](Cc1ccccc1)NC(=O)[C@@H](NC(=O)CNC(=O)[C@H](CCC(N)=O)NC(=O)[C@@H](CO)NC(=O)[C@@H](N)Cc1c[nH]cn1)[C@@H](C)O)[C@@H](C)O)C(=O)N[C@@H](CC(=O)O)C(=O)N[C@@H](CCC(=O)O)C(=O)N[C@@H](CCC(N)=O)C(=O)N[C@@H](CC(C)C)C(=O)N[C@@H](C)C(=O)N[C@@H](CCCCN)C(=O)N[C@@H](CC(=O)O)C(=O)N[C@@H](Cc1ccccc1)C(=O)N[C@H](C(=O)N[C@@H](CCC(=O)O)C(=O)N[C@@H](Cc1c[nH]c2ccccc12)C(=O)N[C@@H](CC(C)C)C(=O)N[C@@H](CCCCN)C(=O)N[C@@H](C)C(=O)NCC(=O)NCC(=O)N1CCC[C@H]1C(=O)N[C@@H](CO)C(=O)N[C@@H](CO)C(=O)NCC(=O)N[C@@H](C)C(=O)N1CCC[C@H]1C(=O)N1CCC[C@H]1C(=O)N1CCC[C@H]1C(=O)N[C@@H](CO)C(N)=O)[C@@H](C)CC)C(=O)O` is reported as 29.7 ± 3.6 U/L (obese diabetic cynomolgus monkey, serum; dose not given, day 43).

Excerpt of the above:
The AST of `CCCCCCCCCCCCCCCCCC(=O)N[C@@H](CCC(=O)NCCCC[C@H](NC(=O)[C@H](CCC(N)=O)NC(=O)[C@H](CCCCN)NC(=O)[C@H](CO)NC(=O)[C@H](CC(C)C)NC(=O)[C@H](CC(=O)O)NC(=O)[C@H](CO)NC(=O)[C@@H](NC(=O)[C@H](Cc1ccccc1)NC(=O)[C@@H](NC(=O)CNC(=O)[C@H](CCC(N)=O)NC(=O)[C@@H](CO)NC(=O)[C@@H](N)Cc1c[nH]cn1)[C@@H](C)O)[C@@H](C)O)C(=O)N[C@@H](CC(=O)O)C(=O)N[C@@H](CCC(=O)O)C(=O)N[C@@H](CCC(N)=O)C(=O)N[C@@H](CC(C)C)C(=O)N[C@@H](C)C(=O)N[C@@H](CCCCN)C(=O)N[C@@H](CC(=O)O)C(=O)N[C@@H](Cc1ccccc1)C(=O)N[C@H](C(=O)N[C@@H](CCC(=O)O)C(=O)N[C@@H](Cc1c[nH]c2ccccc12)C(=O)N[C@@H](CC(C)C)C(=O)N[C@@H](CCCCN)C(=O)N[C@@H](C)C(=O)NCC(=O)NCC(=O)N1CCC[C@H]1C(=O)N[C@@H](CO)C(=O)N[C@@H](CO)C(=O)NCC(=O)N[C@@H](C)C(=O)N1CCC[C@H]1C(=O)N1CCC[C@H]1C(=O)N1CCC[C@H]1C(=O)N[C@@H](CO)C(N)=O)[C@@H](C)CC)C(=O)O` is reported as 29.7 ± 3.6 U/L (obese diabetic cynomolgus monkey, serum; dose not given, day 43).
